Results pooled from the literature.
Protocols differ between the studies behind these lines.
Organism: Acinetobacter baumannii

CC[C@H](C)CCCCC(=O)N[C@@H](CCN)C(=O)N[C@H](C(=O)N[C@@H](CCN)C(=O)N[C@H]1CCNC(=O)[C@H]([C@@H](C)O)NC(=O)[C@H](CCN)NC(=O)[C@H](CCN)NC(=O)[C@H](CC(C)C)NC(=O)[C@@H](CC(C)C)NC(=O)[C@H](CCN)NC1=O)[C@@H](C)O — MIC (broth microdilution; BNCC 194496): 0.25 µg/mL
CC[C@H](C)[C@H](NC(=O)[C@H](CC(C)C)NC(=O)[C@H](CC(C)C)NC(=O)[C@H](CC(C)C)NC(=O)[C@@H](NC(=O)[C@@H](NC(=O)[C@H](CCCCN)NC(=O)[C@H](CCCCN)NC(=O)[C@H](CCCCN)NC(=O)[C@H](CCCCN)NC(=O)[C@H](CC(C)C)NC(=O)[C@H](CCCNC(=N)N)NC(=O)[C@H](CO)NC(=O)[C@@H](N)CO)[C@@H](C)CC)C(C)C)C(=O)N[C@@H](CO)C(=O)N[C@@H](CCCCN)C(=O)N[C@@H](CCCCN)C(=O)N[C@@H](CCCCN)C(=O)N[C@@H](CCCCN)C(N)=O — MIC (broth microdilution; ATCC 17978; highest value reported): 8 µM
CC[C@H](C)[C@H](NC(=O)CNC(=O)[C@H](CC(=O)O)NC(=O)[C@H](CCCNC(=N)N)NC(=O)[C@@H](NC(=O)[C@H](CC(N)=O)NC(=O)[C@H](CCCNC(=N)N)NC(=O)CNC(=O)[C@@H](NC(=O)[C@H](CCCCN)NC(=O)[C@H](CCC(=O)O)NC(=O)[C@@H](NC(=O)[C@H](CCCCN)NC(=O)[C@H](CCCCN)NC(=O)[C@H](Cc1ccccc1)NC(=O)[C@@H](NC(=O)[C@H](CCCCN)NC(=O)[C@H](Cc1c[nH]c2ccccc12)NC(=O)[C@@H](N)CCCNC(=N)N)[C@@H](C)CC)[C@@H](C)CC)C(C)C)C(C)C)C(=O)N[C@H](C(=O)N[C@@H](CCCCN)C(=O)N[C@@H](C)C(=O)NCC(=O)N1CCC[C@H]1C(=O)N[C@@H](C)C(=O)N[C@H](C(=O)N[C@@H](C)C(=O)N[C@H](C(=O)N[C@H](C(=O)NCC(=O)N[C@@H](CCC(N)=O)C(=O)N[C@@H](C)C(=O)N[C@@H](C)C(=O)N[C@H](C(=O)N[C@H](C(=O)N[C@H](C(=O)N[C@@H](CCCCN)C(N)=O)C(C)C)C(C)C)[C@@H](C)O)C(C)C)C(C)C)C(C)C)[C@@H](C)CC — MIC (broth microdilution, MH medium; KCCM 40203; 16 h, 37 °C, growth inhibition over 99%): 1 µM
CC[C@H](C)[C@H](NC(=O)[C@@H](NC(=O)[C@H](Cc1ccccc1)NC(=O)CNC(=O)[C@H](CCC(N)=O)NC(=O)[C@H](CCCCN)NC(=O)[C@H](C)N)C(C)C)C(=O)N[C@@H](Cc1ccc(O)cc1)C(=O)N[C@@H](CCCNC(=N)N)C(=O)N[C@H](C(=O)N[C@@H](CCCNC(=N)N)C(=O)N[C@H](C(=O)N[C@@H](CCCNC(=N)N)C(=O)N[C@@H](CCCNC(=N)N)C(=O)NCC(=O)N[C@@H](CC(N)=O)C(=O)N[C@@H](CCCNC(=N)N)C(=O)N[C@@H](CCCCN)C(N)=O)C(C)C)C(C)C — MIC (broth dilution; ATCC 19606): 6.3 µM
Cc1cc(-c2cn[nH]c2-c2cccc(OCc3cccc(C#N)c3)c2)cc(C)n1 — MIC (broth microdilution; ATCC 19606 Δ3 efflux-deficient): 32 µg/mL
CC[C@H](C)[C@H](NC(=O)[C@H](CC(C)C)NC(=O)[C@H](CCCCN)NC(=O)[C@H](CC(C)C)NC(=O)CNC(=O)[C@@H](NC(=O)[C@H](CO)NC(=O)[C@@H](NC(=O)[C@@H](NC(=O)[C@H](CCC(N)=O)NC(=O)[C@H](Cc1c[nH]c2ccccc12)NC(=O)[C@H](CCCNC(=N)N)NC(=O)[C@H](CC(N)=O)NC(=O)[C@H](CCCNC(=N)N)NC(=O)[C@H](CCCNC(=N)N)NC(=O)[C@@H](NC(=O)[C@H](Cc1ccccc1)NC(=O)[C@H](CCCNC(=N)N)NC(=O)CNC(=O)[C@H](C)NC(=O)[C@H](CCCNC(=N)N)NC(=O)[C@H](CCCNC(=N)N)NC(=O)[C@H](CCCCN)NC(=O)[C@H](Cc1ccccc1)NC(=O)[C@H](CCCNC(=N)N)NC(=O)CNC(=O)[C@H](Cc1c[nH]c2ccccc12)NC(=O)[C@H](CCCNC(=N)N)NC(=O)CNC(=O)[C@H](CCCNC(=N)N)NC(=O)[C@@H](N)[C@@H](C)O)[C@@H](C)CC)[C@@H](C)CC)[C@@H](C)CC)[C@@H](C)O)C(=O)NCC(=O)O — MIC (ATCC 19606; highest concentration 50 µM): 1.2 µM
CC[C@H](C)[C@H](NC(=O)[C@H](CC(C)C)NC(=O)[C@H](CCCNC(=N)N)NC(=O)[C@@H](N)CCCNC(=N)N)C(=O)N[C@@H](CC(C)C)C(=O)N[C@H](C(=O)N[C@@H](CCCCN)C(=O)N[C@H](C(=O)NCC(=O)N1CCC[C@H]1C(=O)N[C@H](C(=O)N[C@H](C(=O)N[C@@H](Cc1ccc(O)cc1)C(=O)N[C@@H](CCCCN)C(=O)N[C@@H](Cc1ccc(O)cc1)C(=O)N[C@@H](Cc1ccccc1)C(=O)N[C@@H](CCCCN)C(=O)N[C@@H](CCCCN)C(=O)N[C@@H](CCC(N)=O)C(=O)N[C@@H](CC(C)C)C(=O)N[C@@H](CCCCN)C(=O)N[C@@H](CCCCN)C(=O)N[C@@H](CC(C)C)C(N)=O)[C@@H](C)CC)[C@@H](C)CC)[C@@H](C)O)[C@@H](C)O — MIC (KCCM 40203, Mueller-Hinton broth; 24 h): 2 µM
CC[C@H](C)[C@H](NC(=O)CNC(=O)[C@H](CC(=O)O)NC(=O)[C@H](CCCNC(=N)N)NC(=O)[C@@H](NC(=O)[C@H](CC(N)=O)NC(=O)[C@H](CCCNC(=N)N)NC(=O)CNC(=O)[C@@H](NC(=O)[C@H](CCCCN)NC(=O)[C@H](CCC(=O)O)NC(=O)[C@@H](NC(=O)[C@H](CCCCN)NC(=O)[C@H](CCCCN)NC(=O)[C@H](Cc1ccccc1)NC(=O)[C@@H](NC(=O)[C@H](CCCCN)NC(=O)[C@H](Cc1c[nH]c2ccccc12)NC(=O)[C@@H](N)CCC(=O)O)[C@@H](C)CC)[C@@H](C)CC)C(C)C)C(C)C)C(=O)N[C@H](C(=O)N[C@@H](CCCCN)C(=O)N[C@@H](C)C(=O)NCC(=O)N1CCC[C@H]1C(=O)N[C@@H](C)C(=O)N[C@H](C(=O)N[C@@H](C)C(=O)N[C@H](C(=O)N[C@H](C(=O)NCC(=O)N[C@@H](CCC(N)=O)C(=O)N[C@@H](C)C(=O)N[C@@H](C)C(=O)N[C@H](C(=O)N[C@H](C(=O)N[C@H](C(=O)N[C@@H](CCCCN)C(N)=O)C(C)C)C(C)C)[C@@H](C)O)C(C)C)C(C)C)C(C)C)[C@@H](C)CC — MIC (KCCM 40203, Mueller-Hinton broth; 16 h, 37 °C; growth inhibition over 99%): 16 µM
N=C(N)NCCC[C@H](NC(=O)[C@@H](N)CCCNC(=N)N)C(=O)N[C@@H](Cc1c[nH]c2ccccc12)C(=O)N[C@@H](Cc1c[nH]c2ccccc12)C(=O)N[C@@H](Cc1ccccc1)C(=O)N[C@@H](CCC(N)=O)C(=O)N[C@@H](Cc1ccccc1)C(=O)N[C@@H](CCC(N)=O)C(=O)N[C@@H](Cc1ccccc1)C(=O)N[C@@H](CCCCN)C(N)=O — MIC (broth microdilution, optical density): 140 µM
CC[C@H](C)[C@H](NC(=O)[C@H](CC(C)C)NC(=O)[C@H](CCCCN)NC(=O)[C@@H](NC(=O)[C@H](C)NC(=O)[C@H](CCC(=O)O)NC(=O)[C@H](Cc1c[nH]cn1)NC(=O)[C@@H](NC(=O)[C@H](CCCCN)NC(=O)[C@H](CCC(N)=O)NC(=O)[C@H](Cc1ccccc1)NC(=O)[C@@H](N)C(C)C)[C@@H](C)CC)[C@@H](C)CC)C(N)=O — MIC (CLSI broth microdilution; ATCC 19606; 18 h, 37 °C): > 128 µM

A few entries again:
Cc1cc(-c2cn[nH]c2-c2cccc(OCc3cccc(C#N)c3)c2)cc(C)n1 — MIC (broth microdilution; ATCC 19606 Δ3 efflux-deficient): 32 µg/mL
